{"data": "Published values pooled from the literature", "note": "Lines come from different studies, so protocols differ. Several values in a cell are separate wells, animals, samples, runs or records. ± marks the error that the study gave.", "chain of UniProt P13569 (whole entry, looked up)": "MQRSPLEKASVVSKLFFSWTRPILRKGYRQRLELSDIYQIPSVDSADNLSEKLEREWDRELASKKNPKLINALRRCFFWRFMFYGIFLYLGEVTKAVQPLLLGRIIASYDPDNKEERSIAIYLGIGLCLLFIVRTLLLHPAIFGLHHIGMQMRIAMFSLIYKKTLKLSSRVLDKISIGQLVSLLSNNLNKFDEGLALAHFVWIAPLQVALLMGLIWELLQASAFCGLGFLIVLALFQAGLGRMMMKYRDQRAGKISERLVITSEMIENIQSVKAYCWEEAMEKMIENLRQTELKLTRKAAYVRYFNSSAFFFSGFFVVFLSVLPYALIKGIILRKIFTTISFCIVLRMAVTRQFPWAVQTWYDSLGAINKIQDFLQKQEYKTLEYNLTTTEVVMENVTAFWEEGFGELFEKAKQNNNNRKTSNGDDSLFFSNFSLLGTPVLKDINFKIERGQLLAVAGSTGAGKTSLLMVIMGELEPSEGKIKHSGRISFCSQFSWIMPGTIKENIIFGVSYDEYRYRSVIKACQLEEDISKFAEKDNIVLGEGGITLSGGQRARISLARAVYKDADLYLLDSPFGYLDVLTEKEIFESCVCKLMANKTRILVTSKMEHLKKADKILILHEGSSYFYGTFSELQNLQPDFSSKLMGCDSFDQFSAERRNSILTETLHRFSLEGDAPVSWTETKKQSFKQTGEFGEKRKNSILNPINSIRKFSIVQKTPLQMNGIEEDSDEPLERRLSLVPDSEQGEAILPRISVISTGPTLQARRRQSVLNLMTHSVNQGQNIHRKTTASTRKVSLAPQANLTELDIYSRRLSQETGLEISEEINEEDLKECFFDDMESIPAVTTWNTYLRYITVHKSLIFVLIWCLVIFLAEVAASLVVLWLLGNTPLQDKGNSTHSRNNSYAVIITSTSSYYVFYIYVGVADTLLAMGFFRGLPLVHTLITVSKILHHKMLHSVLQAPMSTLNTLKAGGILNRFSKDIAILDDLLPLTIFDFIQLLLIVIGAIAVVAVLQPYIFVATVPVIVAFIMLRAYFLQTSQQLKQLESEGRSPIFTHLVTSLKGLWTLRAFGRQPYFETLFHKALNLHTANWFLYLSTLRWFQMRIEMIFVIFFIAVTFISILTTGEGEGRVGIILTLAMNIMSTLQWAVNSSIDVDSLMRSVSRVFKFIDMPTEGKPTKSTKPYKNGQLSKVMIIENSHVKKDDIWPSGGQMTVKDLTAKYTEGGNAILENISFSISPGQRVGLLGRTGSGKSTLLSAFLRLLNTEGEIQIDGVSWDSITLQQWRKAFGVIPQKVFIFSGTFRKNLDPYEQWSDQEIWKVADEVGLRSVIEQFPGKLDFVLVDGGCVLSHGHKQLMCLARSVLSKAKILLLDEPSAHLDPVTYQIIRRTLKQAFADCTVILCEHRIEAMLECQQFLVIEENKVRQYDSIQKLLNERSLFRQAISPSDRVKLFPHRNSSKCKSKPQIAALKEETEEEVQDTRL"}
{"Compound": "CC(C)(C)c1cc(C(C)(C)C)c(-n2cc(-c3cnc4ccccc4c3O)nn2)cc1O", "tested on": "Cystic fibrosis transmembrane conductance regulator (CFTR, Homo sapiens, UniProt P13569)", "test": "inside-out patch clamp", "conditions": "0.2 nM", "endpoint": "current increase", "value": "~7%"}
{"Compound": "CSCC[C@H](NC(=O)[C@H](CC(C)C)NC(=O)[C@H](Cc1c[nH]cn1)NC(=O)CNC(=O)[C@@H](NC(=O)[C@H](C)NC(=O)[C@H](Cc1c[nH]c2ccccc12)NC(=O)[C@H](CCC(N)=O)NC(=O)CCCCCNC(=O)CNC(=O)CNC(=O)CNC(=O)CSC(C)=O)C(C)C)C(N)=O [technetium-99m labelled]", "test system": "nude mouse, PC-3 xenograft, tumor", "conditions": "90 min", "endpoint": "tissue uptake", "value": "0.29 ± 0.05 %ID/g"}
{"Compound": "C[C@@H](O)[C@H](NC(=O)[C@@H]1CSSC[C@H](NC(=O)[C@@H](Cc2ccccc2)NC(=O)CN2CCCN3CCN(CCCN(CP(=O)(O)O)CC3)CC2)C(=O)N[C@@H](Cc2ccc(O)cc2)C(=O)N[C@H](Cc2c[nH]c3ccccc23)C(=O)N[C@@H](CCCCN)C(=O)N[C@@H]([C@@H](C)O)C(=O)N1)C(=O)O [copper-64 labelled]", "test system": "male Lewis rat, AR-42J tumour-bearing", "conditions": "dose not given, 1 to 24 h", "how to read": "relative to: 1 h activity", "endpoint": "activity cleared from pancreas", "value": "79%"}
{"Compound": "CC(C)C[C@@H]1NC(=O)[C@H](C(C)C)NC(=O)[C@H](CO)NC(=O)CNC(=O)CNC(=O)[C@H](CCCNC(=N)N)NC(=O)[C@@H]2CCCN2C(=O)[C@@H](NC(=O)CC[C@H](NC(=O)c2ccc(N(C)Cc3cnc4nc(N)nc(N)c4n3)cc2)C(=O)O)C(C)(C)SSC[C@@H](C(=O)O)NC(=O)CNC(=O)[C@H]([C@@H](C)O)NC(=O)[C@H](C(C)C)NC1=O", "test system": "phosphate buffer", "conditions": "100 µM, pH 6.0, 70 °C", "endpoint": "half-life", "value": "32.1 days"}
{"Compound": "CCCC[C@H](NC(=O)CNC(=O)CNC(=O)CNC(=O)c1ccc(NN)nc1)C(=O)N[C@H]1CC(=O)NCCCC[C@@H](C(N)=O)NC(=O)[C@H](Cc2c[nH]c3ccccc23)NC(=O)[C@H](CCCNC(=N)N)NC(=O)[C@@H](Cc2ccccc2)NC(=O)[C@H](Cc2c[nH]cn2)NC1=O [technetium-99m labelled]", "test system": "C57 mouse, B16/F1 melanoma", "conditions": "2 h", "how to read": "relative to: tumour over lung", "endpoint": "uptake ratio", "value": 54.4}
{"Compound": "CCCC[C@H](NC(=O)CNC(=O)CNC(=O)c1ccc(NN)nc1)C(=O)N[C@H]1CC(=O)NCCCC[C@@H](C(N)=O)NC(=O)[C@H](Cc2c[nH]c3ccccc23)NC(=O)[C@H](CCCNC(=N)N)NC(=O)[C@@H](Cc2ccccc2)NC(=O)[C@H](Cc2c[nH]cn2)NC1=O [technetium-99m labelled]", "test system": "C57 mouse, B16/F1 melanoma, muscle", "conditions": "2 h, together with: NDP-MSH 6.07 nmol blockade", "endpoint": "uptake", "value": "0.03 ± 0.02 %ID/g"}
{"Compound": "N=C(N)NCCC[C@@H]1NC(=O)[C@H](CCCCNC(=O)CC[C@H](NC(=O)CCOCCOCCOCCOCCNC(=O)CC[C@H](NC(=O)CN2CCN(CC(=O)O)CCN(CC(=O)O)CCN(CC(=O)O)CC2)C(=O)NCCOCCOCCOCCOCCC(=O)N[C@@H](CCC(=O)NCCCC[C@@H]2NC(=O)[C@@H](Cc3ccccc3)NC(=O)[C@H](CC(=O)O)NC(=O)CNC(=O)[C@H](CCCNC(=N)N)NC2=O)C(=O)NCCCC[C@@H]2NC(=O)[C@@H](Cc3ccccc3)NC(=O)[C@H](CC(=O)O)NC(=O)CNC(=O)[C@H](CCCNC(=N)N)NC2=O)C(=O)NCCCC[C@@H]2NC(=O)[C@@H](Cc3ccccc3)NC(=O)[C@H](CC(=O)O)NC(=O)CNC(=O)[C@H](CCCNC(=N)N)NC2=O)NC(=O)[C@@H](Cc2ccccc2)NC(=O)[C@H](CC(=O)O)NC(=O)CNC1=O [indium-111 labelled]", "test system": "athymic nude mice, female, U-87 MG glioma xenograft, tumour and blood", "conditions": "intravenous, 0.5 h", "how to read": "relative to: tumour over blood", "endpoint": "tumour to tissue ratio", "value": "11.6 ± 5.36"}
{"Compound": "N=C(N)NCCC[C@@H]1NC(=O)[C@H](CCCCNC(=O)CNC(=O)CNC(=O)CNC(=O)CC[C@H](NC(=O)CNC(=O)CNC(=O)CNC(=O)c2ccc(NN=Cc3ccccc3S(=O)(=O)O)nc2)C(=O)NCC(=O)NCC(=O)NCC(=O)NCCCC[C@@H]2NC(=O)[C@@H](Cc3ccccc3)NC(=O)[C@H](CC(=O)O)NC(=O)CNC(=O)[C@H](CCCNC(=N)N)NC2=O)NC(=O)[C@@H](Cc2ccccc2)NC(=O)[C@H](CC(=O)O)NC(=O)CNC1=O [technetium-99m labelled]", "test": "shake-flask", "test system": "n-octanol/phosphate buffer", "conditions": "pH 7.4", "endpoint": "log P", "value": "-4.44 ± 0.05"}
{"Compound": "COc1cc(C(=O)NCCOCCOCCOCCNC(=O)c2ccc([18F])nc2)ccc1NC(=O)C1NC(CC(C)(C)C)C(C#N)(c2ccc(Cl)cc2F)C1c1cccc(Cl)c1F (stereo not shown)", "tested on": "SJSA-1 tumour model", "test system": "host not given, brain", "conditions": "2 h, tumour-bearing", "endpoint": "tracer uptake", "value": "0.19 %ID/g"}
{"Compound": "N=C(N)NCCC[C@@H]1NC(=O)[C@H](CCCCNC(=O)CCOCCOCCOCCOCCNC(=O)CN2CCN(CC(=O)O)CCN(CC(=O)O)CCN(CC(=O)O)CC2)NC(=O)[C@@H](Cc2ccccc2)NC(=O)[C@H](CC(=O)O)NC(=O)CNC1=O [indium-111 labelled]", "test system": "female athymic nude mice, blood", "conditions": "intravenous, 3 µCi, 0.5 h, U-87 MG glioma xenograft", "endpoint": "tissue uptake", "value": "7.39 ± 0.78 %ID/g"}
{"Compound": "CC(C)C[C@H](NC(=O)C[C@H](O)[C@H](CC(C)C)NC(=O)[C@H](Cc1c[nH]cn1)NC(=O)CNC(=O)[C@@H](NC(=O)[C@H](C)NC(=O)[C@H](Cc1c[nH]c2ccccc12)NC(=O)[C@H](CCC(N)=O)NC(=O)[C@@H](Cc1ccccc1)NC(=O)c1ccc(NC(=O)CNC(=O)CCC(C(=O)O)N2CCN(CC(=O)O)CCN(CC(=O)O)CC2)cc1)C(C)C)C(N)=O (stereo partly shown) [fluorine-18 labelled]", "test system": "mouse serum", "conditions": "1 h, 37 °C", "endpoint": "intact probe", "value": "> 90%"}
{"Compound": "N=C(N)NCCC[C@@H]1NC(=O)[C@H](CCCCNC(=O)CC[C@H](NC(=O)CCOCCOCCOCCOCCNC(=O)CN2CCN(CC(=O)O)CCN(CC(=O)O)CCN(CC(=O)O)CC2)C(=O)NCCCC[C@@H]2NC(=O)[C@@H](Cc3ccccc3)NC(=O)[C@H](CC(=O)O)NC(=O)CNC(=O)[C@H](CCCNC(=N)N)NC2=O)NC(=O)[C@@H](Cc2ccccc2)NC(=O)[C@H](CC(=O)O)NC(=O)CNC1=O [indium-111 labelled]", "test system": "athymic nude mice, female, U-87 MG glioma xenograft, tumour and lungs", "conditions": "intravenous, 1 h", "how to read": "relative to: tumour over lungs", "endpoint": "tumour to tissue ratio", "value": "2.6 ± 0.21"}
{"Compound": "C[C@@](O)(C(F)F)[C@H](NC(=O)c1ccc(C#CC#CC2CC2)cc1)C(=O)NO", "test system": "CD-1 mouse", "conditions": "oral, 40 mg/kg, fasted", "how to read": "relative to: AUC oral over AUC IV", "endpoint": "oral bioavailability", "value": "~73% and 73%"}
{"Compound": "CN[C@](C)(C[18F])C(=O)O", "tested on": "SK-OV-3 tumour model", "test system": "host not given, kidney", "conditions": "1 h, tumour-bearing", "endpoint": "tracer uptake", "value": "6.9 %ID/g"}
{"Compound": "CN(C)CC1CCCCC1(O)c1cccc(O)c1 (stereo not shown)", "test system": "Caco-2", "conditions": "100 µM, 3 h, pH 7.4", "endpoint": "efflux ratio", "value": 1.1}
{"Compound": "CCCC[C@@H](NC(=O)[C@H](Cc1c[nH]c2ccccc12)NC(=O)[C@@H](N)CSC1CC(=O)N(CCCCCC(=O)NN=C(CO)[C@]2(O)Cc3c(O)c4c(c(O)c3[C@@H](O[C@H]3C[C@H](N)[C@H](O)[C@H](C)O3)C2)C(=O)c2c(OC)cccc2C4=O)C1=O)C(=O)N[C@@H](CCC(=O)O)C(=O)N[C@@H](C)C(=O)N[C@@H](C)C(=O)N[C@@H](Cc1ccc(O)cc1)C(=O)N[C@@H](CCC(N)=O)C(=O)N[C@H](CCCNC(=N)N)C(=O)N[C@@H](Cc1ccccc1)C(=O)N[C@@H](CC(C)C)C(N)=O (stereo partly shown)", "test system": "DMEM/F12 without HEPES", "conditions": "at least 24 h, 37 °C", "endpoint": "intact compound", "value": "~100%"}
{"Compound": "N=C(N)NCCC[C@@H]1NC(=O)[C@H](CCCCNC(=O)CCOCCOCCOCCOCCNC(=O)CC[C@H](NC(=O)CCOCCOCCOCCOCCNC(=O)CC[C@H](NC(=O)CN2CCN(CC(=O)O)CCN(CC(=O)O)CCN(CC(=O)O)CC2)C(=O)NCCOCCOCCOCCOCCC(=O)N[C@@H](CCC(=O)NCCOCCOCCOCCOCCC(=O)NCCCC[C@@H]2NC(=O)[C@@H](Cc3ccccc3)NC(=O)[C@H](CC(=O)O)NC(=O)CNC(=O)[C@H](CCCNC(=N)N)NC2=O)C(=O)NCCOCCOCCOCCOCCC(=O)NCCCC[C@@H]2NC(=O)[C@@H](Cc3ccccc3)NC(=O)[C@H](CC(=O)O)NC(=O)CNC(=O)[C@H](CCCNC(=N)N)NC2=O)C(=O)NCCOCCOCCOCCOCCC(=O)NCCCC[C@@H]2NC(=O)[C@@H](Cc3ccccc3)NC(=O)[C@H](CC(=O)O)NC(=O)CNC(=O)[C@H](CCCNC(=N)N)NC2=O)NC(=O)[C@@H](Cc2ccccc2)NC(=O)[C@H](CC(=O)O)NC(=O)CNC1=O [indium-111 labelled]", "test system": "athymic nude mice, female, U-87 MG glioma xenograft, tumour and lungs", "conditions": "intravenous, 72 h", "how to read": "relative to: tumour over lungs", "endpoint": "tumour to tissue ratio", "value": "4.7 ± 0.86"}
{"Compound": "CCCC[C@H](NC(=O)CCCCCCCNC(=O)c1ccc(NN)nc1)C(=O)N[C@H]1CC(=O)NCCCC[C@@H](C(N)=O)NC(=O)[C@H](Cc2c[nH]c3ccccc23)NC(=O)[C@H](CCCNC(=N)N)NC(=O)[C@@H](Cc2ccccc2)NC(=O)[C@H](Cc2c[nH]cn2)NC1=O [technetium-99m labelled]", "test system": "C57 mouse, B16/F1 melanoma, bone", "conditions": "intravenous, 4 h", "endpoint": "uptake", "value": "0.19 ± 0.15 %ID/g"}
{"Compound": "C[C@H]1COc2c(N3CCN(C)CC3)c(F)cc3c(=O)c(C(=O)N[C@@H](CCCNC(=N)N)C(=O)N[C@@H](Cc4ccc(-c5ccccc5)cc4)C(=O)N[C@@H](CCCNC(=N)N)C(=O)N[C@@H](Cc4ccc(-c5ccccc5)cc4)C(=O)N[C@@H](CCCNC(=N)N)C(N)=O)cn1c23", "tested on": "human erythrocytes", "conditions": "12.5 µM, 1 h, 37 °C", "how to read": "relative to: Triton X-100", "endpoint": "hemolysis", "value": "0%"}
{"note": "Some of these lines once more:"}
{"Compound": "N=C(N)NCCC[C@@H]1NC(=O)[C@H](CCCCNC(=O)CNC(=O)CNC(=O)CNC(=O)CC[C@H](NC(=O)CNC(=O)CNC(=O)CNC(=O)c2ccc(NN=Cc3ccccc3S(=O)(=O)O)nc2)C(=O)NCC(=O)NCC(=O)NCC(=O)NCCCC[C@@H]2NC(=O)[C@@H](Cc3ccccc3)NC(=O)[C@H](CC(=O)O)NC(=O)CNC(=O)[C@H](CCCNC(=N)N)NC2=O)NC(=O)[C@@H](Cc2ccccc2)NC(=O)[C@H](CC(=O)O)NC(=O)CNC1=O [technetium-99m labelled]", "test": "shake-flask", "test system": "n-octanol/phosphate buffer", "conditions": "pH 7.4", "endpoint": "log P", "value": "-4.44 ± 0.05"}
{"Compound": "C[C@H]1COc2c(N3CCN(C)CC3)c(F)cc3c(=O)c(C(=O)N[C@@H](CCCNC(=N)N)C(=O)N[C@@H](Cc4ccc(-c5ccccc5)cc4)C(=O)N[C@@H](CCCNC(=N)N)C(=O)N[C@@H](Cc4ccc(-c5ccccc5)cc4)C(=O)N[C@@H](CCCNC(=N)N)C(N)=O)cn1c23", "tested on": "human erythrocytes", "conditions": "12.5 µM, 1 h, 37 °C", "how to read": "relative to: Triton X-100", "endpoint": "hemolysis", "value": "0%"}
{"Compound": "CN(C)CC1CCCCC1(O)c1cccc(O)c1 (stereo not shown)", "test system": "Caco-2", "conditions": "100 µM, 3 h, pH 7.4", "endpoint": "efflux ratio", "value": 1.1}
